Experimental data collected from several papers.
Numbers after ± are the reported error.

SMILES | assay | test system | setting | remaining compound [%]
Cc1cc(N)nc(C[C@@H]2CNC[C@@H]2OCCNCC(F)(F)c2cccc(F)c2)c1 | in vitro metabolic stability |  | 60 min, with: NADPH | 69
[Ru+2].c1ccc(-c2cccc(-c3ccccn3)n2)nc1.c1ccc2nc(-c3ccc4ccccc4n3)ccc2c1.c1cnccn1 |  | water | 24 h, 37 °C | 63
Fc1ccc(Nc2c(Cl)cccc2Cl)c(Cc2nnn[nH]2)c1 | glucuronidation | human liver microsomes | 30 min, with: UDPGA | 91 ± 12
COc1cc(C2c3cc4c(cc3C(OC3OC5COC(C)OC5C(O)C3O)C3COC(=O)C23)OCO4)cc(OC)c1OC(=O)OC1C=CCCC(C)(C(=O)NC(CC(=O)O)C(=O)O)CC1 (centres unmarked) |  | mouse plasma | 1 µM, time not given, 37 °C | 65.8
Brc1ccccc1-c1nnc(CSc2nnnn2-c2ccccc2)o1 |  | rat plasma | 1 h | 98.6
CC12CC3CC(C1)CC(NC(=O)NC1CCC(Oc4ccc(C(=O)O)cc4)CC1)(C3)C2 (centres unmarked) |  | human liver microsomes | 1 µM, 30 min, 37 °C, 1 mg/mL microsomes, with: without NADPH | 95 ± 3
COC(=O)c1ccc2c(c1)NC(=O)/C2=C(\Nc1ccc2c(c1)CCN2C(=O)CN1CCOCC1)c1ccccc1 |  | beagle dog plasma | 1 µM, 4 h, 37 °C | 105
CSCC(NC(=O)c1cc(Cl)ccc1Cl)C(=O)NC(CC(C)C)B(O)O (centres unmarked) |  | dog liver microsomes | 3 µM, 60 min, pH 7.4, with: NADPH | 68 ± 1.37
CS(=O)(=O)c1ccc(-c2nnc(/C=C/c3nnc(-c4ccc(C#N)cc4)o3)n2-c2ccccc2Cl)nc1 |  | mouse liver microsomes | concentration not given, time not given | 96
CCCCCCCCC=CCCCCCCCC(=O)OC(COC(=O)Cc1c(C)n(C(=O)c2ccc(Cl)cc2)c2ccc(OC)cc12)COP(=O)([O-])OCC[N+](C)(C)C (centres unmarked) |  | Clark-Lubs buffer | 4 mg/mL, 24 h, pH 1.2, 37 °C | 13.7 ± 2.32
COc1cc(NC(C)=O)c2c(c1O)-c1c(OC)c(OC)cc3c1C(C2)N(C)CC3 (centres unmarked) |  | rat lung homogenate | 5 µg/mL, 40 d, -20 °C, long-term storage | 90.9 ± 1.4
Clc1cccc(Cl)c1Nc1ccccc1Cc1nnn[nH]1 |  | human liver microsomes | 30 min, with: NADPH | 61 ± 2.8
CC(C)(CN)S[Se]Cc1ccc(-c2cccc(C(O)c3ccc(Cl)c(Cl)c3)c2)cc1 (centres unmarked) |  | rat plasma | 1 h | 73
[Br-].c1ccc(-n2nc(-c3ccccn3)n[n+]2-c2ccccc2)cc1 | HPLC | fetal bovine serum | 24 h | 100
O=C(Cc1ccc(-c2ccc(OCCN3CCOCC3)cc2)cn1)NCc1ccc(F)cc1 |  | mouse liver microsomes | 30 min, with: NADPH | 38.6 ± 0.6
Cc1ccc(N2C(=O)c3ccccc3NC23C(=O)N(C)c2ccc(Br)cc23)cc1 (centres unmarked) |  | human plasma | 18 h | 106 ± 11
C[C@H](CCC(=O)NCCc1ccc(-c2ccccc2)cc1)[C@H]1CC[C@H]2[C@@H]3CC[C@@H]4CC(=O)CC[C@]4(C)[C@H]3CC[C@]12C |  | human plasma | 2 h | 96.9

A few entries again:
SMILES | assay | test system | setting | remaining compound [%]
Brc1ccccc1-c1nnc(CSc2nnnn2-c2ccccc2)o1 |  | rat plasma | 1 h | 98.6
CSCC(NC(=O)c1cc(Cl)ccc1Cl)C(=O)NC(CC(C)C)B(O)O (centres unmarked) |  | dog liver microsomes | 3 µM, 60 min, pH 7.4, with: NADPH | 68 ± 1.37
